Measurements gathered from unrelated publications.
Several values in a cell are separate wells, animals, samples, runs or records.
TDP1: Tyrosyl-DNA phosphodiesterase 1 (TDP1, Homo sapiens, UniProt Q9NUW8)
Sequence of UniProt Q9NUW8 (whole entry, looked up): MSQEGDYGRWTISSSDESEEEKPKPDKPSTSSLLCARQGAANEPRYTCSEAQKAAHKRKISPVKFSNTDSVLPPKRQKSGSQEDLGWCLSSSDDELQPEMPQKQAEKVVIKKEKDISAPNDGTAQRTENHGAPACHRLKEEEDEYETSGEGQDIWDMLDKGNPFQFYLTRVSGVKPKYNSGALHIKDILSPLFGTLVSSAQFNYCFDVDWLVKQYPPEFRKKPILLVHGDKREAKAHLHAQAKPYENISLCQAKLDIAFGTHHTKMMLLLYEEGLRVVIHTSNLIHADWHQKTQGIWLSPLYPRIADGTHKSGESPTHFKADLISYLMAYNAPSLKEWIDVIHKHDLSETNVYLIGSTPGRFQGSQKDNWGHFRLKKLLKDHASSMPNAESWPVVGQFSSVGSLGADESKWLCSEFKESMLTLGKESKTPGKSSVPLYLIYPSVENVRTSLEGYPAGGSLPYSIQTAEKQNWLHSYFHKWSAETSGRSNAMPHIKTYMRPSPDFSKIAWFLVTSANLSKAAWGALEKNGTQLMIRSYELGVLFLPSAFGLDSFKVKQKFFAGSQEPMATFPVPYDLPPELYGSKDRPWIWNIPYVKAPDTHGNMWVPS

SMILES | tested on | test | system | setting | endpoint | value
Cc1noc(C)c1Cn1cc(N2C(=O)CN(Cc3cccc(OS(=O)(=O)O)c3)C2=O)cn1 |  |  | Sprague-Dawley rat, male | oral, 30 mg/kg of parent drug, 0.5 h | plasma concentration | 4620 ng/mL
C[C@]12C[C@H](c3ccc(S(C)(=O)=O)cc3)C3=C4CCC(=O)C=C4CC[C@H]3[C@@H]1CC[C@@]2(O)C(F)(F)C(F)(F)F |  | measured: compound (parent) | healthy human volunteers, pooled plasma | oral, 5 mg daily, day 28, 4 h | plasma concentration | 23.5 ng/mL
Cc1nn(-c2nc3c(F)cc(F)cc3s2)c(O)c1C(c1ccc(C(F)(F)F)cc1)c1c(C)nn(-c2nc3c(F)cc(F)cc3s2)c1O |  |  | ICR mouse | intraperitoneal, 10 mg/kg, 0.75 h | plasma concentration | 2640 ng/mL and 4320 ng/mL and 2170 ng/mL
C=C[C@]1(C)C[C@@H](OC(=O)CSc2ccc(NC(=O)c3ccco3)cc2)[C@]2(C)[C@H](C)CC[C@]3(CCC(=O)[C@H]32)[C@@H](C)[C@@H]1O |  |  | Mycoplasma gallisepticum-infected chickens, plasma | intramuscular, 40 mg/kg, 2 h | plasma concentration | 2320 ng/mL and 1700 ng/mL and 3220 ng/mL and 1770 ng/mL and 1730 ng/mL and 2620 ng/mL and 3260 ng/mL and 2980 ng/mL
CS(=O)(=O)C(C=NOCc1ccc2nc(-c3ccccc3)c(Nc3ccc(C(=O)O)cc3)n2c1)c1nc2ccccc2[nH]1 (stereo not shown) | TDP1 | enzyme activity, inhibitor |  | 100 µM, unpurified compound | inhibition | 5.5%
Cc1ncsc1-c1ccc(CNC(=O)[C@@H]2C[C@@H](O)CN2C(=O)[C@@H](NC(=O)COCC(C)(COCCOCCOCCNC(=O)C[C@@H]2N=C(c3ccc(Cl)cc3)c3c(sc(C)c3C)-n3c(C)nnc32)COCCOCCOCCNC(=O)C[C@@H]2N=C(c3ccc(Cl)cc3)c3c(sc(C)c3C)-n3c(C)nnc32)C(C)(C)C)cc1 |  |  | male C57BL/6 mice, plasma | intravenous, 5 mg/kg, 1 h, 20-fold diluted sample | plasma concentration | 4490 ng/mL and 5100 ng/mL
O=C(NS(=O)(=O)c1cccs1)c1cc2ccccc2n1Cc1ccc(Br)c2ccccc12 |  |  | Sprague-Dawley rat, male | oral, 2 mg/kg, 24 h | plasma concentration | 3.88 ng/mL and 3.31 ng/mL
CCC(=O)N(C)c1ccc(Cl)c(Cl)c1 |  | LC-MS/MS | mouse C57BL/6 female, plasma | subcutaneous, 2 mg/kg, 1 h | plasma concentration | 14.6 ng/mL and 89.2 ng/mL and 147 ng/mL
N#Cc1cc(C=NOCc2ccc3nc(-c4ccccc4)c(Nc4ccc(C(=O)O)cc4)n3c2)ccc1F | TDP1 | enzyme activity, inhibitor |  | 100 µM, unpurified compound | inhibition | 27.7%
Cc1noc(C)c1Cn1cc(N2C(=O)CN(Cc3cccc(O[C@@H]4O[C@H](C(=O)O)[C@@H](O)[C@H](O)[C@H]4O)c3)C2=O)cn1 |  |  | Sprague-Dawley rat, male | oral, 100 mg/kg of parent drug, 0.5 h | plasma concentration | 9090 ng/mL

Some of these lines once more:
SMILES | tested on | test | system | setting | endpoint | value
CCC(=O)N(C)c1ccc(Cl)c(Cl)c1 |  | LC-MS/MS | mouse C57BL/6 female, plasma | subcutaneous, 2 mg/kg, 1 h | plasma concentration | 14.6 ng/mL and 89.2 ng/mL and 147 ng/mL
